Measurements from different studies.
Numbered parts are unrelated; each lists some results of a single study. Values joined by “and” are separate records of one study, mostly repeats; a detail may differ.

Set 1 — SMILES: CCC(=N\O)/C(C)=C/c1ccc(F)cc1; tested at: 1 µM
It gave 87.2% and 89.3% for viability (sample D normal epithelium organoids; human patient-derived organoids; reference: DMSO control).
sample C colorectal tumour organoid; replicate 2; reference: DMSO — viability: 105%.
sample C colorectal tumour organoid; replicate 1; reference: DMSO — viability: 108%.
For sample I colorectal tumour organoid; replicate 2; reference: DMSO: viability read 80.7%.
For sample BA colorectal tumour organoid; reference: DMSO: viability read 120%.
sample B colorectal tumour organoid; replicate 2; reference: DMSO — viability: 120%.
For colorectal tumour organoids; reference: DMSO: viability read 111%.
The viability was 97.4% (sample I colorectal tumour organoid; replicate 1; reference: DMSO).
It gave 114% for viability (sample B colorectal tumour organoid; replicate 1; reference: DMSO).

Set 2 — host: mouse; matrix: microsomes or S9; tested at: 2 µM; time: 0.5 h
COc1cc(N2CCC(N3CCN(C)CC3)CC2)ccc1Nc1ncc(Cl)c(Nc2ccccc2N)n1 has a remaining compound of 72.5%.
For O[C@@H]1C[C@@H](c2nnc3n2CCOC3)C[C@@H]1CNc1ncc(Cl)cn1, the remaining compound was 84.5%.
With Cc1ccc2c(c1)c(N1CCCC1=O)c(C(=O)NCC1CCCO1)n2C (centres unmarked) the remaining compound was 78.4%.
With CC(C)CCCC(C)NC(=O)C1CCN(c2nc(Cl)nc3[nH]cnc23)CC1 (centres unmarked) the remaining compound was 3.25%.
For CC(=O)OC(CF)c1cc(F)ccc1S(N)(=O)=O (centres unmarked), the remaining compound was 8.71%.
With Cc1oc(-c2[nH]ncc2C(=O)N(C)C)cc1S(=O)(=O)NCCCN(C)C the remaining compound was 85.7%.
The remaining compound of CNC1=C(c2cccc(C)n2)C(=O)C(c2ccc(Cl)cc2Cl)O1 (centres unmarked) is reported as 0.23%.
The remaining compound of Cc1nn(C)c(C)c1S(=O)(=O)Nc1ccc(-n2nn[nH]c2=O)cc1 is reported as 73.7%.
Cc1ccc(NCc2nc3n(n2)CCCCC3)c(C)c1 gave a remaining compound of 1.28%.
COc1cc2c(Nc3ccc(Br)c(C)c3)ncnc2cc1OCC1CN(C)CCO1 (centres unmarked) gave a remaining compound of 37.8%.
For CN/C(=N/c1cc(C)nn1-c1ccccc1)c1ccc(F)cc1, the remaining compound was 4.05%.
For CC(C)n1ncc(N2CCOCC2)c(Cl)c1=O, the remaining compound was 63.5%.

Set 3 — effect on: enzyme activity; action: inhibitor; tested at: 10 µM
Target: Calcium/calmodulin-dependent protein kinase type II subunit alpha (CAMK2A, Homo sapiens, UniProt Q9UQM7)
UniProt Q9UQM7, sequence (whole entry, looked up): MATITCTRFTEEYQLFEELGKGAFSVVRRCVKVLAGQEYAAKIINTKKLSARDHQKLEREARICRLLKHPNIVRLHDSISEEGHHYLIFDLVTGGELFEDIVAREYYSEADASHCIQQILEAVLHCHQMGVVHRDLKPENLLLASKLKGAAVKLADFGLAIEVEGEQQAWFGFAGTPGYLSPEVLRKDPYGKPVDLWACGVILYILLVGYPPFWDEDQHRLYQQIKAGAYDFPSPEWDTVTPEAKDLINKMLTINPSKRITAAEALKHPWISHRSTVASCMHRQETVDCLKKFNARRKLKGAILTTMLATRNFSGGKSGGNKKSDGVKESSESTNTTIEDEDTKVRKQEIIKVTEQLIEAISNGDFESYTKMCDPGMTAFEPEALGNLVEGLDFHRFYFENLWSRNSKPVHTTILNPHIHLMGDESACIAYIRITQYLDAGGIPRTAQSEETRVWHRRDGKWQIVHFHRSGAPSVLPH
With CC(=O)CCCCn1c(=O)c2c(ncn2C)n(C)c1=O the inhibition was 2%.
With O=C(O[C@@H]1Cc2c(O)cc(O)cc2O[C@@H]1c1cc(O)c(O)c(O)c1)c1cc(O)c(O)c(O)c1 the inhibition was -46%.
The inhibition of C[C@H](N)C(=O)N[C@@H](CCC(N)=O)C(=O)O is reported as 10%.
The inhibition of CCN(CC)CCOC(=O)C(Cc1cccc2ccccc12)CC1CCCO1 (centres unmarked) is reported as -2%.
With O=C(CO)[C@@H](O)[C@H](O)[C@@H](O)CO the inhibition was 30%.
For CCOc1nc2cccc(C(=O)OC(C)OC(=O)OC3CCCCC3)c2n1Cc1ccc(-c2ccccc2-c2nn[nH]n2)cc1 (centres unmarked), the inhibition was -3%.
For O=C(/C=C/c1ccc(O)c(O)c1)c1ccc(O)c(O)c1O, the inhibition was -28%.
The inhibition of O=C(O)C=Cc1ccc(O)cc1 is reported as -22%.

Set 4 — effect on: enzyme activity; action: inhibitor; tested at: 77 µM; reference: untreated
Target: DNA polymerase theta, ATPase domain (POLQ, Homo sapiens, UniProt O75417)
UniProt O75417, sequence (whole entry, unmodified, looked up): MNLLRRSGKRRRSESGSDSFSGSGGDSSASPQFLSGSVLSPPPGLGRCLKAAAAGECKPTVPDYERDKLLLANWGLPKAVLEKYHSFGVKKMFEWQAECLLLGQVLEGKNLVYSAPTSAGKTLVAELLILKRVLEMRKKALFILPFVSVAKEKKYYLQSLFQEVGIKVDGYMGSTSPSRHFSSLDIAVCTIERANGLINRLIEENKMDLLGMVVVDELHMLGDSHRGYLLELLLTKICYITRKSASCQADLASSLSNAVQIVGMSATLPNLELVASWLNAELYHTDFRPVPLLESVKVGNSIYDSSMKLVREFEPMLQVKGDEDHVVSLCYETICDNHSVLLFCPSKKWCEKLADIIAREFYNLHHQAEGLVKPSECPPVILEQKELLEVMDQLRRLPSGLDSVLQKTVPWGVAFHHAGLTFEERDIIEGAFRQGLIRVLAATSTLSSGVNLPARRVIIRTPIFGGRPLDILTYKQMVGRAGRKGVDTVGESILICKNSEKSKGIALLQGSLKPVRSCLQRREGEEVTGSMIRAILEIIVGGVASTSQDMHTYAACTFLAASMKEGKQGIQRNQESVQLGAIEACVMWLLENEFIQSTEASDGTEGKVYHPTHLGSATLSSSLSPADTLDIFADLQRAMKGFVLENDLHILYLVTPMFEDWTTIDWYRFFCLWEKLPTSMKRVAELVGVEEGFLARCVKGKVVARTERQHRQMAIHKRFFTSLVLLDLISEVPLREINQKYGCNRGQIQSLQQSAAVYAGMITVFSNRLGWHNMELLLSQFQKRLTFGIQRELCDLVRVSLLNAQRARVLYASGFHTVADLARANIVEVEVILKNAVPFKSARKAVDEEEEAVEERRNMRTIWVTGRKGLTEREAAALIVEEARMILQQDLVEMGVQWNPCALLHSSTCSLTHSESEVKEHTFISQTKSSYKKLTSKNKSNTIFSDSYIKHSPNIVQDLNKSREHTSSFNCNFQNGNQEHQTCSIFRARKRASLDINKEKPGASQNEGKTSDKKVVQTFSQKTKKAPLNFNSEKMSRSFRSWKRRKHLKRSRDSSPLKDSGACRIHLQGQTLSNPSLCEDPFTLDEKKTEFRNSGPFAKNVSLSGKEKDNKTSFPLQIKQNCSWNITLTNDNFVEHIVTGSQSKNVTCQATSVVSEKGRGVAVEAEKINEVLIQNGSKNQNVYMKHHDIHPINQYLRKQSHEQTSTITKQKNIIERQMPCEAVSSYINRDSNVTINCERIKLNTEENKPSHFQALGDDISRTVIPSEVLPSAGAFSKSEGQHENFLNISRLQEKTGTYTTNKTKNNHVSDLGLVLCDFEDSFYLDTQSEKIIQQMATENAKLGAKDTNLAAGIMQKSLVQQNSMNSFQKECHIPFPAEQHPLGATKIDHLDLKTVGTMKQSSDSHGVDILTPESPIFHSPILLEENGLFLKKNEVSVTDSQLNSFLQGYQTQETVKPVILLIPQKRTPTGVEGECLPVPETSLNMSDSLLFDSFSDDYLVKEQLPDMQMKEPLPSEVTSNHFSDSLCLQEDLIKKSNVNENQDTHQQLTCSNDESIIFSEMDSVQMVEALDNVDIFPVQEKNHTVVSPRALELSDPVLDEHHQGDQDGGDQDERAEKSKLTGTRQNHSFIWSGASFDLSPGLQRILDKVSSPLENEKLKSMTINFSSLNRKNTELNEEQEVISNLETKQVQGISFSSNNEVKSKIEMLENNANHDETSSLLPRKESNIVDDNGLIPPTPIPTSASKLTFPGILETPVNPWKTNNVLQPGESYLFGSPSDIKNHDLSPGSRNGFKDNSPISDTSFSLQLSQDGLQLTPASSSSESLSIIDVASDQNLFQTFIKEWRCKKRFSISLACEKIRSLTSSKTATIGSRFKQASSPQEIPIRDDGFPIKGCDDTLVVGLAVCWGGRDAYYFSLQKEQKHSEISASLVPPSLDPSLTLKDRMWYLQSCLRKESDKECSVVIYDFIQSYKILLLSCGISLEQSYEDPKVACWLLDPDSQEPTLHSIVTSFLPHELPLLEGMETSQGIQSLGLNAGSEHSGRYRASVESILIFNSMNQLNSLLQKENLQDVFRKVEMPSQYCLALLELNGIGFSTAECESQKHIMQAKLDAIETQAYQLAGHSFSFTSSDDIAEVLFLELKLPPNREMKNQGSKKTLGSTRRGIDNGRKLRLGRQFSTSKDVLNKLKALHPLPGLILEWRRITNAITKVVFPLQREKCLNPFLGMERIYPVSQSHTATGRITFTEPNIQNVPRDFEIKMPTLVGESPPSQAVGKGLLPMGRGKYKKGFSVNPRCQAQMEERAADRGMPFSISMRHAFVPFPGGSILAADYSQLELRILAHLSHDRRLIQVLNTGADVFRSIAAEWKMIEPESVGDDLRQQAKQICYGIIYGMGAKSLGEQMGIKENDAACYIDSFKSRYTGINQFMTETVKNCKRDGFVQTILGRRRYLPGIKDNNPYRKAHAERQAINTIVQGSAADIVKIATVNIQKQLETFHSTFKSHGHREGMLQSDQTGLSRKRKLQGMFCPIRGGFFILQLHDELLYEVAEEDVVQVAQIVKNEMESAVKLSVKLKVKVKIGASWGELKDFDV
CN1CCN(C2Cc3ccccc3Sc3ccc(Cl)cc32)CC1 (centres unmarked) gave a remaining activity of 103%.
O=C(NCc1ccccc1)c1csc(Nc2ccncn2)n1 gave a remaining activity of 97.4%.
Cc1c(Cl)cccc1Nc1ccccc1C(=O)O gave a remaining activity of 92.6% and 92.8%.
Nc1ccc(S(=O)(=O)c2ccc(N)cc2)cc1 gave a remaining activity of 99.8%.
N=C(NC(=O)c1nc(Cl)c(N)nc1N)Nc1ccccc1 gave a remaining activity of 100%.
The remaining activity of C=C1C(=O)[C@]23[C@H](O)[C@H]1CC[C@H]2[C@@]12CO[C@]3(O)[C@@H](O)[C@@H]1C(C)(C)CC[C@@H]2O is reported as 80.3%.
The remaining activity of Cn1cc(-c2ccc3nnc(C(F)(F)c4ccc5ncccc5c4)n3n2)cn1 is reported as 109% and 108% and 106% and 94.8%.
For COc1cc2c(Nc3ccc(NC(=O)c4ccccc4)cc3)ncnc2cc1OCCCN1CCOCC1, the remaining activity was 105%.
The remaining activity of CCC[S+]([O-])c1ccc2[nH]c(NC(=O)OC)nc2c1 (centres unmarked) is reported as 84.3%.
